Measured values collected from several papers.
Numbered parts are unrelated; each lists some results of a single study. Substitutions count along the parent as printed.
Chain of UniProt Q9C0B0 (30-357, looked up): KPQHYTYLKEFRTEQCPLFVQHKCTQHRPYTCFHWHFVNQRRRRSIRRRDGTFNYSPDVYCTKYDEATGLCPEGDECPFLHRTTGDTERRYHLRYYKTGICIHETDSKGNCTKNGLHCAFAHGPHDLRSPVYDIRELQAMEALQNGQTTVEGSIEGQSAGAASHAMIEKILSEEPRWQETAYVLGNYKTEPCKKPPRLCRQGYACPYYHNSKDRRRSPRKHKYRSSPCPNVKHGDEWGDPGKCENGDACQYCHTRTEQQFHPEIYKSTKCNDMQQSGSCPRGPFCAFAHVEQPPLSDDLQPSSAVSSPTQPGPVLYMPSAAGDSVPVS

Series 1 — method: universal PBM; form: double-stranded DNA, one strand shown; matrix: in vitro; concentration: not given; direction: higher = stronger binding
Target: Sal-like protein 4, full length isoform B (SALL4, Homo sapiens, UniProt Q9UJQ4-2, residues 1-616)
Setting: 8-mer, flanks averaged, mean of replicates
Sequence | E-score
ACCGGACA | -0.263
ATAGGGCA | 0.0712
GATGAACA | 0.123
ATCCCATC | -0.0291
GTGAGTAA | 0.0319
CAATGCAA | 0.034
CCCCGGCG | -0.361
GATCACAA | 0.137
AAATTAGG | 0.239
CCTACTAA | -0.057
ATCACGGC | -0.0215
CTCAAGCC | -0.295
CGTACCAA | -0.0281
CCTTACCG | -0.177
TACTAGGA | 0.0835
CACTTATC | 0.137
CTAAGCAG | -0.235
GCCTGTAA | -0.0513

Series 2 — method: protein binding microarray; form: double-stranded DNA, one strand shown; matrix: in vitro; concentration: not given; relative to: not given; direction: higher = stronger binding
Target: Histone acetyltransferase KAT6A, winged helix 1, GST fusion (KAT6A, Homo sapiens, UniProt Q92794, residues 1-85)
Setting: 8-mer, flanks averaged, mean of 2 arrays, mostly near background
Target sequence (chain): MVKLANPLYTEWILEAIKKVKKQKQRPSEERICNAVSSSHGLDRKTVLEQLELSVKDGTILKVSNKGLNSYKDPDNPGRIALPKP
Sequence | E-score
AAGCCACC | -0.14
GCGGAGCA | 0.189
CTGGGCCA | -0.168
CCTTGTCG | -0.016
AATTGTAC | -0.0758
ATTCCTTA | -0.0471
AGCTGATA | -0.218
ACAAGGAT | -0.197
ATTCACAC | -0.214
CAGGGAAA | -0.0719
GTCCTAAA | -0.0362
GCGTTGAA | 0.213
TCGAGAAA | -0.0433
ATATCAGC | 0.0207
ATTTCTGC | 0.0318
ACGGGCTA | 0.24

Series 3 — target: CCND2, cyclin fold, Cln2 fusion (human); method: yeast growth competition, sequencing; matrix: yeast; setting: weak parent motif; relative to: not given; direction: higher = stronger binding
Parent: GMNC docking peptide (human); KNAKRNLSSEFAN
Variant | normalised enrichment score
S9I | 0.271
A12C | 0.0937
N6P | 0.0758
S9Y | 0.312
N2Y | 0.255
N2H | 0.216
A12H | -0.00363
R5L | 0.00835
F11I | 0.176
F11A | 0.257
L7S | -0.0957
L7R | -0.183
S8K | 0.0659
N2L | 0.0238
A3Y | -0.139
E10R | 0.267
L7W | -0.0272
E10A | 0.13
F11D | 0.22
L7Y | -0.275
K4E | -0.107
N2Q | 0.173
N6F | -0.142
N2K | 0.755

Series 4 — method: protein-binding microarray; form: double-stranded DNA, one strand shown; matrix: in vitro; concentration: 0.8 µM; setting: whole 60-bp probe, no competitor; direction: higher = stronger binding; shared flanks, not repeated: … GTCTTGATTCGCTTGACGCTGCTG
Target: Centromere-binding protein 1, full length, N-terminal tag (CBF1, Saccharomyces cerevisiae, UniProt P17106, residues 1-351)
Chain of UniProt P17106 (whole entry, looked up): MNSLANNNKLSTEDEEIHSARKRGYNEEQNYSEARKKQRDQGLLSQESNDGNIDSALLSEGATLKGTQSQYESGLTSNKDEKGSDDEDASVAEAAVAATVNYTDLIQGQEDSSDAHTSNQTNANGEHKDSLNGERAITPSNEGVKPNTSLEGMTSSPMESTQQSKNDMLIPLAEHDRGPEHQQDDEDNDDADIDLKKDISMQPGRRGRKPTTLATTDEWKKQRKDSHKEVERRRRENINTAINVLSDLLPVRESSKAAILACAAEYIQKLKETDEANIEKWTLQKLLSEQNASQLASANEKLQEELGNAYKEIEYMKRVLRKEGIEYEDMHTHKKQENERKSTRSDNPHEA
Sequence | fluorescence intensity
CTATTTTATTAATGTCAGCTGAACCTCGTATTTTTC | 815 a.u.
GAATTCTTGCATTTTCGCGTGATATCAAAATTATAG | 970 a.u.
CTAGGTGGGTGCCATCACCTCTCGTGATATACATTC | 1410 a.u.
GAAACTTCTTGCAGACATCAGACATACTATTGTTAG | 522 a.u.
CTACGTTCGTGCAATCTCATGATAGAAAAAGGGTTC | 641 a.u.
GAATCCCGGTAGTTCCACGCGGCCGATACCTCGTAG | 479 a.u.
GAAAAAAATGGAACGGTCGTGGCACATGTGGGATAG | 750 a.u.
CCTAACTACTATATACACGTGTTATAGCTTCGTACA | 6650 a.u.
GAAAATGGAAAACATGTGATTCTTATACTAAGCTAG | 2600 a.u.
CTATCTTGGCGTTCACACGTGGGTTTAAAAAGGTTC | 3050 a.u.
GAAGCGAGCAGAGAGTGGGTGATGTCAGAGAACTAG | 536 a.u.
CCTAACTACTATAATCAGGTACAATAGCTTCGTACA | 500 a.u.
GAAGGCAACGAGGACCACCTGAGTGTCGCCACTTAG | 527 a.u.
GAATGTATAATTGGTGGTGTAACGTGGATTAAATAG | 681 a.u.
CTAACCCCATACTTACGCGTGGTTTAATTCTATTTC | 558 a.u.
TGTACGAAGCTATATCAGCAGACTATAGTAGTTAGG | 600 a.u.
CTATGAATGATATAACACGTTAAAGTTTCTAGATTC | 519 a.u.
GAACACGGCCTAATCCTCATGATTCATTTTATATAG | 526 a.u.
CCTAACTACTATAAGCACGTGAGATAGCTTCGTACA | 5600 a.u.
GAATGCCACAATTACCACCACACAGAGGCAGGATAG | 529 a.u.

Series 5 — method: aptamer microarray, sandwich; form: DNA with 2'F-ANA; matrix: in vitro; concentration: 200 nM; together with: Cy3 exosite-II aptamer, 400 nM; direction: higher = stronger binding; sequence: GGTTGGTGTGGTTGG
Target: Prothrombin, mature alpha-thrombin (F2, Homo sapiens, UniProt P00734)
Setting: whole 15-mer aptamer, many near background
Modification | mean fluorescence intensity
2'F-ANA at 1 2 3 6 7 8 12 13 | 438 a.u.
2'F-ANA at 4 5 7 11 12 13 | 77.3 a.u.
2'F-ANA at 1 6 8 9 13 | 127 a.u.
2'F-ANA at 3 10 13 14 15 | 400 a.u.
2'F-ANA at 4 5 6 11 14 15 | 76.2 a.u.
2'F-ANA at 1 2 3 9 10 14 | 54.8 a.u.
2'F-ANA at 1 2 3 4 5 6 9 | 65.2 a.u.
2'F-ANA at 1 2 3 5 8 11 13 | 51.7 a.u.
2'F-ANA at 2 5 6 9 12 | 168 a.u.
2'F-ANA at 6 7 10 13 14 | 112 a.u.
2'F-ANA at 1 4 5 7 11 | 49.9 a.u.
2'F-ANA at 2 4 5 6 7 8 9 15 | 82.2 a.u.
2'F-ANA at 1 2 4 5 8 10 11 12 14 | 49 a.u.
2'F-ANA at 1 3 4 6 9 11 14 | 63.7 a.u.
2'F-ANA at 3 4 7 11 12 14 | 473 a.u.
2'F-ANA at 4 9 10 12 | 133 a.u.
2'F-ANA at 1 4 6 8 9 11 13 14 | 49.3 a.u.
2'F-ANA at 2 4 8 12 13 15 | 494 a.u.
2'F-ANA at 1 3 4 6 8 9 10 11 12 13 14 15 | 53.9 a.u.
2'F-ANA at 5 6 7 9 10 11 13 14 15 | 49.5 a.u.
2'F-ANA at 1 2 3 4 5 8 9 10 13 | 46.5 a.u.
2'F-ANA at 1 3 5 7 10 11 12 15 | 93.7 a.u.
2'F-ANA at 3 5 7 9 13 14 15 | 54.3 a.u.
2'F-ANA at 3 4 8 9 10 11 12 14 | 182 a.u.
2'F-ANA at 1 2 5 7 8 10 12 13 14 15 | 48.7 a.u.

Series 6 — method: RNA Bind-n-Seq; form: RNA; matrix: in vitro; concentration: 365 nM; relative to: no-protein control; direction: higher = stronger binding
Target: RNA binding protein fox-1 homolog 2, RRM domain, GST-SBP tag (RBFOX2, Homo sapiens, UniProt O43251-10, residues 100-194)
Setting: natural RNA segment, single round, ends assumed
Shared flanks, not repeated: GGGAGUUCUACAGUCCGACGAUC … UGGAAUUCUCGGGUGCCAA
Construct (chain): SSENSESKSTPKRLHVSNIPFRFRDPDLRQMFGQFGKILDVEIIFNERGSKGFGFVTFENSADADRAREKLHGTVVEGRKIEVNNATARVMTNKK
Sequence | RBNS enrichment (R)
AGUGAGGUUAAAUGCAUUCAGGAGGUUGUUUGUUUCUUCUAUCUAGUUUUAGAAUAAUAUUUCUUCGGCAAACCCUGCUAACUGCGGUUCACCCUUGAAAACGUUAAUCU | 0.297
UUAACUUGUUUCAAUGCCUACUUUUAAUGGAGGUUAUUAAACACUUUAACCUCCCUUCUAGCCCACCACCAACCAGAGAUAGUGGGAAAGAAAGGAUACAGGGGAAGUGG | 0.272
UACAGGCGUACAACAAAAAGCGGGUAGAAAUAAGAAUGUCACACUCCCGGGGCAUGGUAAGCCUGAGUUUGCCCUAACACCUCACUUAUCAGCUCUAUUACGACCCUUCU | 0.279
UUUGAAAUCCAACUUGUUUUUAAAUUCCAUGUUGGUGCCAUAGAUGUAGUUUUUACAGCCUGAAAAUUAACUGCCAUGAACAUUCUUUGGUGAUGUAAGCAAGUAAAACC | 0.724
UCCUCUGUCUCACAGGGCCCCUCUCCCUUCUGUUCAGUAAACAAACUGAAGCCAAAAAUGAAGCCGUGGCCAAGCGUGACCCAGAGAUGGGGUGUCCUGGCCCUUAGUGA | 0.324
AAAAGUCCUGUAUUUAUGUAUUUUUUGGAUUCAGUGUGAGGCAUUGAAUUAAAGAUACCGAUUAAAGAUUCUACCCUACAAAUCAUGUGUAUUUGUAUAUUUUAGGUUAA | 0.426
AACCAGGAGGCUUCGAAAAGCAGCGUCUCUGGCAGUCAAGAUAAAAAAGUUGAUAUUGUGUUUUGUGGGACUGUAUAUGUUGUCAUUUUUAAAGGGGGGAAAUAACAUCC | 1.35
AACGAAGAGCUUCUAUGAAAACCCUCACCUUUCCAUGUCCCAAAAACCAACACAAGUCCCUGGGGCGGGUGGAGAAGAUGGUGGAGCCCCGUGAGACGGGGCUUCUGUGU | 0.301
AAAACCUUUGUUUCCUGUGGGGGGAGGACUGAACAUGUGGUCUUAACAGCCUUUUGUACAGAUAUCUACAAAUCAAACGAUGUCUCUAUCCAGUGCUUGCCCUCGGAGUG | 0.39
GCCUGUAAUCCCAACACUUUUGGGAGGUCCAGGCAGGAGGAUCACUUGGGCCCAGGAGGUCAAGCCUGCAGCGAGCUGAGAUCACACCACUGCACUCCAGCCUGGGGUGA | 0.313
UUCUGUCUCUAUGAGAGAUAGCUUAUUACUCUGAUACUCUUUAAUCUUUUACAAAGGCAAGUUGCCACUUGUCAUUUUUGUUUCUGAAAAAUAAAAGUAUAACUUAUUCA | 0.387
AAGUUAAAUGUAGAUUCACAGAUACAUUUACUUUCAGAAUCCUCAAGAGGAUUUCAAAUGCUAACUUUUAGUUUCUUGGGAUUGAUCAAGGCAAGAGAAGUGGCUUUAAC | 0.385

Further values, each from its own experiment
Sequence | target | test | system | setting | how to read | measurement | result
GGGAGUUCUACAGUCCGACGAUCGAAGAUGGUGGUUGUACAUUAUUCAUCCCGAAAAUAUAAAAAUUCAUUUUGUUUUGAAGCCCGUUAUUAAACUGGAACCGCAGUUAUAUCCCUGAGAAUGGGGCCCUUCUCUUGACAUUCCAACAGAGGAUUGAGCAUCA | RING finger protein unkempt homolog, zinc fingers 1-6, SBP tag (UNK, Homo sapiens, UniProt Q9C0B0, residues 30-357) | RNA Bind-n-Seq | RNA, in vitro | 100 nM, RNA with constant flanks, ends assumed | relative to: input RNA pool, higher = stronger binding | bound/input enrichment | 0.844 ratio

Repeated from above (series 3):
Variant | normalised enrichment score
N2H | 0.216
A12H | -0.00363
R5L | 0.00835
F11I | 0.176
F11A | 0.257
L7S | -0.0957
L7R | -0.183
S8K | 0.0659
N2L | 0.0238
A3Y | -0.139
E10R | 0.267
L7W | -0.0272
E10A | 0.13
F11D | 0.22
L7Y | -0.275
